Assay results gathered from unrelated publications.
Every numbered part comes from another study and shows a few of its results, in no order.
Chain of UniProt Q6P2M8 (whole entry, looked up): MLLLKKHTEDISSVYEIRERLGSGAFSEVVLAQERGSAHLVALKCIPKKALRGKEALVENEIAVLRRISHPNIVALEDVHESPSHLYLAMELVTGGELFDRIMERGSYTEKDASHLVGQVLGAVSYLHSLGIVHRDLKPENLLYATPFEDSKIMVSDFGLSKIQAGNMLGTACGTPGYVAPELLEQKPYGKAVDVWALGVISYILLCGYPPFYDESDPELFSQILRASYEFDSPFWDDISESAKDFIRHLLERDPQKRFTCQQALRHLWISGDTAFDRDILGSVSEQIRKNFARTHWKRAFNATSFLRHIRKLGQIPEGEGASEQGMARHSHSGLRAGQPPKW
Chain of UniProt Q9Y616 (whole entry, looked up): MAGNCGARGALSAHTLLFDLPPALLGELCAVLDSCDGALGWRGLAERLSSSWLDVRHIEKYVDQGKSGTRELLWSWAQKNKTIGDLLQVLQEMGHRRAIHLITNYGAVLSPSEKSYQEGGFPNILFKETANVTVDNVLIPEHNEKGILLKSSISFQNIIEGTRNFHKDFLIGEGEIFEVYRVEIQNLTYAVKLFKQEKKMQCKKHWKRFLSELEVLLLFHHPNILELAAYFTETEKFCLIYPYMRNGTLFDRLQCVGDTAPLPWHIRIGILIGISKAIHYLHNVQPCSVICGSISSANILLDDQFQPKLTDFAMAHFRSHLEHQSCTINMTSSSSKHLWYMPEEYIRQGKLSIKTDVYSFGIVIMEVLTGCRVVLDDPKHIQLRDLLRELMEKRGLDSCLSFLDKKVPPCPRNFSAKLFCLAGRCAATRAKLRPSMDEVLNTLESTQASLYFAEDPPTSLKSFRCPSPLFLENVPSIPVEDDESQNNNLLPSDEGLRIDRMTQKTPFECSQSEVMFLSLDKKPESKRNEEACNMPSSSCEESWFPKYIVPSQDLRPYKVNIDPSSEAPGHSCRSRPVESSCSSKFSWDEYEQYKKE
Chain of UniProt Q9HBY8 (whole entry, looked up): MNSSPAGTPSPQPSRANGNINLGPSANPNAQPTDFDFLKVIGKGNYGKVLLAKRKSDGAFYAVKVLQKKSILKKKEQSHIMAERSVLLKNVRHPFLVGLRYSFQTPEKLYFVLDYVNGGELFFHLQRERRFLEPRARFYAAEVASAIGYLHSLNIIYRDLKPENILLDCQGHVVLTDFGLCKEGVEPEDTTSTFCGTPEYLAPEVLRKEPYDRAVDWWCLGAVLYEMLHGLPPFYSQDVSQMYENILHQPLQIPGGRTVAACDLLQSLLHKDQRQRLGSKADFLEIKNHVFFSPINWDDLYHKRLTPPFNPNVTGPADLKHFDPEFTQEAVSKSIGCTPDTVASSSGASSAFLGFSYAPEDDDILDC
Chain of UniProt Q9Y6E0 (whole entry, looked up): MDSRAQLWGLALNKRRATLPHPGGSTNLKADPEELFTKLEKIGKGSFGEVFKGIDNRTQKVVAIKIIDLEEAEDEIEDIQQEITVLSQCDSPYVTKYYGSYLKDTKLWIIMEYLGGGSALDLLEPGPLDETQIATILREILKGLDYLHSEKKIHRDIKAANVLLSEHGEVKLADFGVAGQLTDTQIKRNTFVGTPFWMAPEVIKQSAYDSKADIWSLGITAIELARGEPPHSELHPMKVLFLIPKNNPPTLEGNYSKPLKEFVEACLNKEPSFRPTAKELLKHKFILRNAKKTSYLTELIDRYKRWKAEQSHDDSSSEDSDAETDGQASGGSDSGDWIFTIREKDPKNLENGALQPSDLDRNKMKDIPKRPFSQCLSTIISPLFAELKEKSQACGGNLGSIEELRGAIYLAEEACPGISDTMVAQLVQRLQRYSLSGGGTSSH
Chain of UniProt Q05397 (whole entry, looked up): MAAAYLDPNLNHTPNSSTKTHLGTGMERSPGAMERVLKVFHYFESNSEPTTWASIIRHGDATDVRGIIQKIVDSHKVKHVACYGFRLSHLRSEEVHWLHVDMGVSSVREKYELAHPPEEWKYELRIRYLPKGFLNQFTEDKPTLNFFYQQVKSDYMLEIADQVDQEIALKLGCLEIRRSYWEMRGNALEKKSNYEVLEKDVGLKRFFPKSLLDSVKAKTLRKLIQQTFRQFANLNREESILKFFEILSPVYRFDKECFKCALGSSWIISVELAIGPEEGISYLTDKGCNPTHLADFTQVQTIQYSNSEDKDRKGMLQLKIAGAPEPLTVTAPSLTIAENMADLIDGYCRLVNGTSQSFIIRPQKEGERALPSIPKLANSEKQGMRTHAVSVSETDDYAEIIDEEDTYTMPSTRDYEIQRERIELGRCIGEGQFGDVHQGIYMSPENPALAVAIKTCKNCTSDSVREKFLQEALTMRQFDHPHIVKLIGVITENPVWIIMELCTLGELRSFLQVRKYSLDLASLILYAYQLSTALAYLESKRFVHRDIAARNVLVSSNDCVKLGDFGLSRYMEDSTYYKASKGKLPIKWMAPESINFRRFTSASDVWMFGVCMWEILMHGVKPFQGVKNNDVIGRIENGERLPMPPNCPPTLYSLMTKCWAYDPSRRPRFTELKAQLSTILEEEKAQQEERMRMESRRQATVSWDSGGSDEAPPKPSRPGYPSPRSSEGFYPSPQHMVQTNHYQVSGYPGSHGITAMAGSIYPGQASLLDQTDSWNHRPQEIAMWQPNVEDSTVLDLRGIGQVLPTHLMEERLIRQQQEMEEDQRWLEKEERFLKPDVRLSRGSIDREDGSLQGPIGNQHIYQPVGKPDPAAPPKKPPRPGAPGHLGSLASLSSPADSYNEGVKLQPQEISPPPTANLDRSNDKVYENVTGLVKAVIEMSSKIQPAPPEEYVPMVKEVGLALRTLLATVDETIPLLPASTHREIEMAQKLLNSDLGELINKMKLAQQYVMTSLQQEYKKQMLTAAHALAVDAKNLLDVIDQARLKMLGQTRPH
Chain of UniProt P21860 (whole entry, looked up): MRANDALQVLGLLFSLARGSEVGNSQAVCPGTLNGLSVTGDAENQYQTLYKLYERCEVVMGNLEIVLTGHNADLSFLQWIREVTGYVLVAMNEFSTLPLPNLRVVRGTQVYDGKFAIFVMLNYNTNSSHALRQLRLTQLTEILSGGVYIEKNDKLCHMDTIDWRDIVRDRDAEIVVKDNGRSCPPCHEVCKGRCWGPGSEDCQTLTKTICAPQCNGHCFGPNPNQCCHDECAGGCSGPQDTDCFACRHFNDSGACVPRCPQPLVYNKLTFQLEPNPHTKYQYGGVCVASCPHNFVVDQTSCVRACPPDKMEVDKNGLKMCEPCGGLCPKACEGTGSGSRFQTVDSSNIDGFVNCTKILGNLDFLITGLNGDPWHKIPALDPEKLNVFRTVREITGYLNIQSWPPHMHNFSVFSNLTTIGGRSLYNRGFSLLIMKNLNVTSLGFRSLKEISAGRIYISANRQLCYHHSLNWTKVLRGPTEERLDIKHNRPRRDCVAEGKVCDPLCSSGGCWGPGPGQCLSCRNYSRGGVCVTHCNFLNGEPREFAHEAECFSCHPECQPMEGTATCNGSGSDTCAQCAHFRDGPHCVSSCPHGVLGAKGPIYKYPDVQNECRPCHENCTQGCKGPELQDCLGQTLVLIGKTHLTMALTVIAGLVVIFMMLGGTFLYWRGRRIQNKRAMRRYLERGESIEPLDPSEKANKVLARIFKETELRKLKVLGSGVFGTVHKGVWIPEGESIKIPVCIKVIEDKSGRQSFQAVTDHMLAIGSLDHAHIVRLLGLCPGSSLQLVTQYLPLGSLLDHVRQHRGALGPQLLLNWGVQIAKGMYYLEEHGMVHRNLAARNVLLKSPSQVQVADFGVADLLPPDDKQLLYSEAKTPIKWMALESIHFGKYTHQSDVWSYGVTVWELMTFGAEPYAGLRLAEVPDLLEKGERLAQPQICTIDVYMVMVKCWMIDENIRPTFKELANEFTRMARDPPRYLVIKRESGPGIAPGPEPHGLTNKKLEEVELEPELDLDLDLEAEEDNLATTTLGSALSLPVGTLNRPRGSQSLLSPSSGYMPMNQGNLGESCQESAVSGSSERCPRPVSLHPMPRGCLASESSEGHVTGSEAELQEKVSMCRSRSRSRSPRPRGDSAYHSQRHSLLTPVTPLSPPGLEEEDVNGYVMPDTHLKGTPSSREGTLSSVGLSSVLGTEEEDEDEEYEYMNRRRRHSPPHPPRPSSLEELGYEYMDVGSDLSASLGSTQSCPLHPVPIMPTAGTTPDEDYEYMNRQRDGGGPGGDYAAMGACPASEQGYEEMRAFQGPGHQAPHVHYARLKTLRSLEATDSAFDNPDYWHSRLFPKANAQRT
Chain of UniProt Q07002 (whole entry, looked up): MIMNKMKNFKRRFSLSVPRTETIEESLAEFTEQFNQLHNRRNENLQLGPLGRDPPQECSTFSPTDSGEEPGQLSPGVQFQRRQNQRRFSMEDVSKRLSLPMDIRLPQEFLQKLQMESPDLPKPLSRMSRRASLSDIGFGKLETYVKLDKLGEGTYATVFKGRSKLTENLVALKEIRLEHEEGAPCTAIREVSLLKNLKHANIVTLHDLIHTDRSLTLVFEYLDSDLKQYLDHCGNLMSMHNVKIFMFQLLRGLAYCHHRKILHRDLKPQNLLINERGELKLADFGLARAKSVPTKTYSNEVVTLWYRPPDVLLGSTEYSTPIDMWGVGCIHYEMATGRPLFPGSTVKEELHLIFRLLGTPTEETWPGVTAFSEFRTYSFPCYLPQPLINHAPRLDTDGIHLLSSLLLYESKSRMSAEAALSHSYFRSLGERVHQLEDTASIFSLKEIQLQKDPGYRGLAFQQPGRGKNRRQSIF

Sample 1
Cell line: HaCaT
Concentration: 100 µM
Time: 18 h
With `CCCCNc1cc(C(=O)O)cc(S(N)(=O)=O)c1Oc1ccccc1` the viability was 110%.
For `COc1ccc2c(c1)C(=O)N(CCc1ccc(S(=O)(=O)NC(=O)NC3CCCCC3)cc1)C(=O)C2(C)C`, the viability was 84.5%.
For `CN(C)CCC(c1ccc(Cl)cc1)c1ccccn1` (centres unmarked), the viability was 107%.
With `Cc1cc(-n2c(=O)[nH]c(=O)n(C)c2=O)ccc1Oc1ccc(SC(F)(F)F)cc1` the viability was 50.9%.
`N=C(N/N=C/c1ccc(Cl)cc1)N/N=C/c1ccc(Cl)cc1` has a viability of 19.6%.
With `Clc1ccc(C(Cn2ccnc2)OCc2ccc(Sc3ccccc3)cc2)c(Cl)c1` (centres unmarked) the viability was 18.8%.
With `OCCOCCN1CCN(C(c2ccccc2)c2ccc(Cl)cc2)CC1` (centres unmarked) the viability was 110%.
For `Cc1cccc(CN2CCN(C(c3ccccc3)c3ccc(Cl)cc3)CC2)c1` (centres unmarked), the viability was 72.2%.

Sample 2
SMILES: CS(=O)(=O)N1CCCC(NC(=O)[C@H](CCC2CCCCC2)NC(=O)c2ccc(CNC(=O)c3cnc4ccccn34)cc2)C1 (some centres unmarked)
Concentration: 0.1 µM
For EPHA8 (Homo sapiens, UniProt P29322); cell-free assay, competition with immobilised ligand: remaining binding read 89%.
The remaining binding was 96% (GAK (Homo sapiens, UniProt O14976); cell-free assay, competition with immobilised ligand).
For FLT4 (Homo sapiens, UniProt P35916); cell-free assay, competition with immobilised ligand: remaining binding read 95%.
It gave 74% for remaining binding (Tyrosine-protein kinase ABL1, phosphorylated (ABL1, Homo sapiens, UniProt P00519, E255K); binding, competition with immobilised ligand).
It gave 100% for remaining binding (SGK2 (Homo sapiens, UniProt Q9HBY8); cell-free assay, competition with immobilised ligand).
It gave 77% for remaining binding (PNCK (Homo sapiens, UniProt Q6P2M8); cell-free assay, competition with immobilised ligand).
It gave 95% for remaining binding (STK24 (Homo sapiens, UniProt Q9Y6E0); cell-free assay, competition with immobilised ligand).
CAMK2D (Homo sapiens, UniProt Q13557); cell-free assay, competition with immobilised ligand — remaining binding: 84%.
CDK18 (Homo sapiens, UniProt Q07002); cell-free assay, competition with immobilised ligand — remaining binding: 100%.
For Tyrosine-protein kinase ABL1, non-phosphorylated (ABL1, Homo sapiens, UniProt P00519, T315I); cell-free assay, competition with immobilised ligand: remaining binding read 83%.
PTK2 (Homo sapiens, UniProt Q05397); cell-free assay, competition with immobilised ligand — remaining binding: 92%.
It gave 65% for remaining binding (IRAK3 (Homo sapiens, UniProt Q9Y616); cell-free assay, competition with immobilised ligand).
It gave 83% for remaining binding (ERBB3 (Homo sapiens, UniProt P21860); cell-free assay, competition with immobilised ligand).
The remaining binding was 85% (Tyrosine-protein kinase ABL1, phosphorylated (ABL1, Homo sapiens, UniProt P00519, F317I); binding).
For MAP4K1 (Homo sapiens, UniProt Q92918); cell-free assay, competition with immobilised ligand: remaining binding read 95%.

Sample 3
SMILES: CC(C)n1cnc(-c2ccc(F)cc2)c1-c1ncc(C(=O)Nc2ccc(N3CCN(C)CC3)cc2)[nH]1
Technique: phase 2a trial
Species: idiopathic pulmonary fibrosis patients
all arms pooled, grade 3 emergent event — “patients with osteoporosis”: 0%.
The “patients with osteoporosis” was 0% (all arms pooled, grade 5 emergent event).
all arms pooled, grade 2 emergent event — “patients with osteoporosis”: 0%.
The “patients with osteoporosis” was 0% (30 mg once daily, grade 3 emergent event).
It gave 0% for “patients with osteoporosis” (30 mg once daily, grade 4 emergent event).
It gave 0% for “patients with osteoporosis” (30 mg once daily, grade 1 emergent event).

Sample 4
Target: Serine/threonine-protein kinase pim-3 (PIM3, Homo sapiens, UniProt Q86V86)
Effect on: enzyme activity
Action: inhibitor
Concentration: 0.5 µM
Baseline: control
`O=C(O)/C=C/c1cc(Br)c(Br)c(Br)c1Br` has a remaining activity of 17.7%.
With `C[C@@H](N)[C@H]1CC[C@H](C(=O)Nc2ccncc2)CC1` the remaining activity was 97%.
With `FC(F)(F)c1ccc(/C=C/c2nc(COc3ccc(CCCCn4ccnn4)cc3)co2)cc1` the remaining activity was 107%.
`O=C1c2ccccc2-c2nc3nnnn3nc21` gave a remaining activity of 93.3%.
`c1cc(-c2cnn3cc(-c4ccc(OCCN5CCCCC5)cc4)cnc23)ccn1` gave a remaining activity of 83.8%.
The remaining activity of `CC(C)N(CCC(=O)c1ccc2ccccc2c1)Cc1ccccc1` is reported as 105%.

Some of these lines once more (sample 2):
It gave 95% for remaining binding (STK24 (Homo sapiens, UniProt Q9Y6E0); cell-free assay, competition with immobilised ligand).
CAMK2D (Homo sapiens, UniProt Q13557); cell-free assay, competition with immobilised ligand — remaining binding: 84%.
CDK18 (Homo sapiens, UniProt Q07002); cell-free assay, competition with immobilised ligand — remaining binding: 100%.
For Tyrosine-protein kinase ABL1, non-phosphorylated (ABL1, Homo sapiens, UniProt P00519, T315I); cell-free assay, competition with immobilised ligand: remaining binding read 83%.
PTK2 (Homo sapiens, UniProt Q05397); cell-free assay, competition with immobilised ligand — remaining binding: 92%.
